Published values pooled from the literature.
Each numbered part is a random draw from the data of one study; scales do not carry over between parts.

Set 1
Target: Histone acetyltransferase KAT6A, both winged helices, GST fusion (KAT6A, Homo sapiens, UniProt Q92794, residues 1-181)
Method: protein binding microarray
Molecule type: double-stranded DNA, one strand shown
Matrix: in vitro
Tested at: not given
Notes: 8-mer, flanks averaged, mean of 2 arrays, mostly near background
Relative to: not given
Reading: higher = stronger binding
Construct (chain): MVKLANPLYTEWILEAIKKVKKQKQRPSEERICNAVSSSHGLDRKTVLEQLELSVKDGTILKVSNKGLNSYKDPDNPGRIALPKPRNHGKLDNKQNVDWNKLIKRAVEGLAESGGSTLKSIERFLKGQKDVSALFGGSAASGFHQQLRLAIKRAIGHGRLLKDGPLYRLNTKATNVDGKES
| Sequence | E-score |
| --- | --- |
| ATTCCAGA | -0.0447 |
| CGATTCCA | -0.057 |
| AGTAGTCA | -0.0422 |
| GGACCCAC | -0.012 |
| GTGAGCCA | -0.161 |
| GAGCATCC | -0.114 |
| GCCCCACC | -0.0778 |
| AGGTTAAA | -0.0258 |
| CCAGCACG | 0.0978 |
| GACCGTAC | 0.182 |
| AAAGTGGT | -0.201 |
| GGGGTAAA | -0.0142 |
| GCTACCCA | -0.127 |
| AGGGACCG | -0.0224 |
| GGATTCTA | -0.152 |
| GTAGTTAA | 0.0617 |
| GACTCCTC | -0.105 |
| GTCTATTA | -0.0785 |
| CGCCAAAC | 0.121 |
| GGCCTACA | -0.0397 |
| ACGAGATA | -0.139 |
| CTGCAAAA | -0.149 |
| ACGTCCTC | -0.126 |
| ATAAATAG | 0.0571 |
| GCGTATTA | 0.0658 |

Set 2
Target: PABPC1L2, full length, GST fusion (mouse, UniProt A0ABA7IW68)
Method: RNAcompete
Molecule type: RNA
Matrix: in vitro
Tested at: 20 nM
Notes: 7-mer, probes averaged, single round
Relative to: mean of 7-mers
Reading: higher = stronger binding
Target sequence (chain): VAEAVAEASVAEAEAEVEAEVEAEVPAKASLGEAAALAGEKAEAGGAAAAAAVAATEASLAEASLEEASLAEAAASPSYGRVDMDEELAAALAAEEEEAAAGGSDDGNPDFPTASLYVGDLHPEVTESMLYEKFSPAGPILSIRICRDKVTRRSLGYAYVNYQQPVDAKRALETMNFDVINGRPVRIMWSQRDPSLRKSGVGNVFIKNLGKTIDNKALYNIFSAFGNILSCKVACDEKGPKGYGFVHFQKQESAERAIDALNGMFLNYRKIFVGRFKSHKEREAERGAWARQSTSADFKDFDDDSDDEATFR
| Sequence | 7-mer Z-score |
| --- | --- |
| UCUGCCG | -0.293 |
| AUGCCCA | -0.161 |
| ACUUCAU | -0.159 |
| AUAUCAG | -0.0409 |
| GAUGGUU | -0.213 |
| CAAUUGG | 0.00254 |
| GGCCUAA | -0.00833 |
| AAUCCAU | 0.0515 |
| UCAGCAA | 0.0986 |
| CGUGCCU | -0.164 |
| UUAGUUA | -0.18 |
| AAGCGGG | 0.642 |
| CAGGGAU | 0.135 |
| UGGUCGG | -0.155 |
| UAAUUAC | -0.22 |
| CAGCUUA | -0.19 |
| UUAGUUC | -0.275 |

Set 3
Target: GDNF-inducible zinc finger protein 1, full length (GZF1, Homo sapiens, UniProt Q9H116, residues 1-711)
Chain of UniProt Q9H116 (whole entry, looked up): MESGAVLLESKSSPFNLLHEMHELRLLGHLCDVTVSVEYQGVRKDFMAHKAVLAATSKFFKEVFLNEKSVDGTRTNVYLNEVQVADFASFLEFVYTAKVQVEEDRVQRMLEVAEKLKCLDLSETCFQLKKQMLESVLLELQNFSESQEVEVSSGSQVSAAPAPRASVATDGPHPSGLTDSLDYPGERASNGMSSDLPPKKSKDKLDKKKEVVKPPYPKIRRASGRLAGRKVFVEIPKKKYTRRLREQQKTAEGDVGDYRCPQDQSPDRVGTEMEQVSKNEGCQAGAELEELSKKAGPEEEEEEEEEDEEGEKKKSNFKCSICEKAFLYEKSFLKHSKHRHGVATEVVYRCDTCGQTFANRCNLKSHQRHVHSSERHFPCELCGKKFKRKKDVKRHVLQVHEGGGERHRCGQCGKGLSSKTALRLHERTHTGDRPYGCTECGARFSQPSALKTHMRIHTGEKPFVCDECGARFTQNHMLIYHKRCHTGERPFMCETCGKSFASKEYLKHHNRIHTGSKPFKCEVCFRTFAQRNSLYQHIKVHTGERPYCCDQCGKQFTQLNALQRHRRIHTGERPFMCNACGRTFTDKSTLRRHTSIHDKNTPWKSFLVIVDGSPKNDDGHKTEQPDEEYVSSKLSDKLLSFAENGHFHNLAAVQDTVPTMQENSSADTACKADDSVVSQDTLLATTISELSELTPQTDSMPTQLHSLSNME
Method: protein-binding microarray
Molecule type: hairpin DNA
Matrix: in vitro
Tested at: not given
Notes: whole hairpin DNA, median over replicate spots
Relative to: not given
Reading: higher = stronger binding
| Sequence | median fluorescence [a.u.] |
| --- | --- |
| GAGGCCATTACGCGAATGCCTCCTGGCATTCGCGTAATGGCCTCACACTC (5mC at 13) | 521 |
| GAGGCCACGACGGTAATGCCTCCTGGCATTACCGTCGTGGCCTCACACTC (5mC at 8) | 785 |
| GAGGCCTTTACGGTAATGCCTCCTGGCATTACCGTAAAGGCCTCACACTC | 598 |
| GAGGCCATCACGGTAATGCCTCCTGGCATTACCGTGATGGCCTCACACTC | 641 |
| GAGGCCATTACGGTCGTGCCTCCTGGCACGACCGTAATGGCCTCACACTC (5mC at 15 29) | 590 |
| GAGGCCATGACGGTAATGCCTCCTGGCATTACCGTCATGGCCTCACACTC | 641 |
| GAGGCCAATACGGTAATGCCTCCTGGCATTACCGTATTGGCCTCACACTC | 632 |
| GAGGCCATTACGGTTATGCCTCCTGGCATAACCGTAATGGCCTCACACTC | 443 |
| GAGGCCATTACGGTCGTGCCTCCTGGCACGACCGTAATGGCCTCACACTC | 602 |
| GAGGCCATTACGCTAATGCCTCCTGGCATTAGCGTAATGGCCTCACACTC | 415 |
| GAGGCCATTACGGTAGTGCCTCCTGGCACTACCGTAATGGCCTCACACTC | 669 |

Set 4
Target: Sal-like protein 4, full length isoform B (SALL4, Homo sapiens, UniProt Q9UJQ4-2, residues 1-616)
Method: universal PBM
Molecule type: double-stranded DNA, one strand shown
Matrix: in vitro
Tested at: not given
Notes: 8-mer, flanks averaged, mean of replicates
Reading: higher = stronger binding
| Sequence | E-score |
| --- | --- |
| GCACTGCC | -0.0974 |
| AGTACCAC | -0.0752 |
| GGCATATA | 0.286 |
| ACTCACCC | -0.102 |
| AGTGGGAT | 0.00379 |
| GGACAGGA | -0.213 |
| AGCAGGTC | -0.175 |
| AGAATATG | 0.298 |
| AATCACCT | 0.12 |
| AATCGTTG | 0.0757 |
| CAGCCAAG | -0.135 |
| AAGGCAGA | 0.014 |
| CGACTGCA | -0.108 |
| CAACTGGC | -0.12 |
| AATGTCTG | 0.139 |
| GAGCGCCC | -0.402 |
| CACAGGAG | -0.08 |
| ATTTATCC | 0.287 |
| ACTACTGG | -0.153 |
| GTCCTAAC | 0.0632 |
| GCAACCTA | 0.0302 |
| AACCAAGT | 0.0629 |
| CTGAGCTC | -0.14 |

Set 5
Target: Prothrombin, mature alpha-thrombin (F2, Homo sapiens, UniProt P00734)
Method: aptamer microarray, sandwich
Molecule type: DNA with 2'F-ANA
Matrix: in vitro
Tested at: 200 nM
Notes: whole 15-mer aptamer, many near background
With: Cy3 exosite-II aptamer, 400 nM
Reading: higher = stronger binding
Sequence: GGTTGGTGTGGTTGG
| Modification | mean fluorescence intensity [a.u.] |
| --- | --- |
| 2'F-ANA at 2 4 5 6 13 14 15 | 54.5 |
| 2'F-ANA at 2 4 5 6 8 10 12 13 15 | 49.1 |
| 2'F-ANA at 1 2 5 10 11 13 | 59.7 |
| 2'F-ANA at 2 4 6 7 8 9 11 14 15 | 98.9 |
| 2'F-ANA at 1 3 5 6 7 9 11 13 14 15 | 50 |
| 2'F-ANA at 1 3 4 8 9 12 13 14 15 | 73.8 |
| 2'F-ANA at 1 2 3 4 5 6 7 9 11 13 14 15 | 55.8 |
| 2'F-ANA at 3 4 6 7 8 9 10 13 15 | 209 |
| 2'F-ANA at 4 5 6 8 9 10 11 | 47.9 |
| 2'F-ANA at 1 2 3 5 6 7 11 14 15 | 44.4 |
| 2'F-ANA at 1 2 3 12 14 | 96.3 |
| 2'F-ANA at 1 2 3 7 9 12 13 14 15 | 92.6 |
| 2'F-ANA at 1 2 3 8 9 11 13 14 15 | 69.7 |
| 2'F-ANA at 2 6 8 11 13 14 15 | 109 |
| 2'F-ANA at 1 2 5 6 7 9 14 15 | 43.1 |
| 2'F-ANA at 1 2 4 6 8 11 14 15 | 49.5 |
| 2'F-ANA at 1 3 5 6 7 8 9 11 12 14 15 | 51.7 |
| 2'F-ANA at 1 2 4 6 7 10 13 15 | 68.4 |
| 2'F-ANA at 1 3 4 6 9 10 12 13 14 15 | 63.7 |
| 2'F-ANA at 2 3 5 9 11 13 | 73.2 |
| 2'F-ANA at 1 4 5 11 12 14 15 | 44.5 |
| 2'F-ANA at 1 3 8 9 10 11 12 13 15 | 120 |
| 2'F-ANA at 3 5 6 8 9 10 11 13 | 66.1 |

Set 6
Target: RNA binding protein fox-1 homolog 2, RRM domain, GST-SBP tag (RBFOX2, Homo sapiens, UniProt O43251-10, residues 100-194)
Method: RNA Bind-n-Seq
Molecule type: RNA
Matrix: in vitro
Tested at: 365 nM
Notes: natural RNA segment, single round, ends assumed
Relative to: no-protein control
Reading: higher = stronger binding
Constant ends, left off below: GGGAGUUCUACAGUCCGACGAUC … UGGAAUUCUCGGGUGCCAA
Target sequence (chain): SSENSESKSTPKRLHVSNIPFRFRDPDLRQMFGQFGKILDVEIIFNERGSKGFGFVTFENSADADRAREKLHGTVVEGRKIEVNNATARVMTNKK
| Sequence | RBNS enrichment (R) |
| --- | --- |
| CCCGAGCUGUGGGCCACCCUGGGGGCGCUGUCGCUGCUGUUUCCCUGCCCGAGAAUCAGCUUGAAUUCCCACUUCUGCUUGUUGGCCCCAGCUCUGGCUUUGCAUCCUUA | 2.81 |
| GUACCAAUAUGGUAGACCUCUUUCACAGUCAAUCUCAGCCCUGGAAAUUAUGUUCUACUAUGCUCAGGCCCAAAGGCAAUGUGGGGGCCAAAGGGCAACUGGCCUUCUGA | 1.47 |
| UCAGCAGAAGUAACUGAAGUAGAUCAGGAAGGGGCUGCCUCAGGAAAAUUCCUAGAUCCUAGGAAUUCAGUGAGACCCUGGGAAGGACCAGCAUGCUAAUCAGUGUCAGU | 0.598 |
| AGGCUUGCUGGCUGGUGAAAAAGAAAUACAUCCCUCCCUCCAUCACCAUGUGGGGAUGCAGGAAAUCCUGCAGGGGUUGUGUGGGAGGCAGAUAGAUGGUGGUAUGUUGG | 1.4 |
| UUCCCUCUGGGUUCUCCUUUCCCCAGACAGCUGUAGGGGCACAUGGUAGGGAAGCAGCAUAGGCCCCCAGGGAAACGACUCCACAGCAGGGCCUUCAUGGAUCUCCAAGU | 0.261 |
| GGAUUUUUGUUAAUGUAUUUAUUUCAUUCCAGUUUGAUUUAUUUUAAUUGUUGAUACUUAAGUUGUCAGUAGACAUGCUUUAUUUAUGAUAUAUUUCAGCUUAAAGUUAU | 1.15 |
| CAUUCUCCAUUCUCCAUUUCCCUCUUCAAGGAUGGGCAAUCUACCAAAAUCCCUCAAGAUAACCCUUUGCUAGGAAGUGGUGAAUCUAAAAGCUGAAGCACGUUUCAUAU | 1.46 |
| UCAGCCAUGCUGCCGCCGAAGGGUGGCCCCCUCACCGAAUCUCCUUAGGAAGGGUUUUAUACAGACAGGUUAAAGGGCUCUGGUUUCAAGUCCCUUGUCCAUGCUGCACU | 0.271 |
| CCACCAGCUCUCUCUAUCAUGGAUCUGCACCUUCUCGCCCUUGUCUCUCCUGAGUCAUGACGGGUCAUACUGAUUCUUGUUCCACUGAUGAUUUUCUCUGAUGAGGUCCU | 0.232 |
| UUUUAGGUUGUGUGCAGUUGAUAUUUAACAUUGAUUUAUUUUUGAUCAUUUAAGUAAUAGUUAGUAAUCACGUAAAUACACCCGGACAGAAAUAUAAUGUCUGGAUCUAC | 0.349 |
| UUUGAGACGAGGGUGAGGGAAUGUGGUGGCCACAAAAGAACAGGGACUUGCAGCACAAAUGUCACUUCUGUCUCCCUUUUCAGUGGUAGCACGGAGGAGGAGGUGCUGCG | 5.91 |
| CUCUAGAGGCCAAGCAUCUGAUGAAAAGAGCCUGCCUAGAGAUUUUAUUCCGGCAGCACAUAAACAGAUGACUCAUGCUGUGAGAGGUAAGACAGUGUGUAGCAGCCCUG | 0.384 |

A few entries again (set 4):
| Sequence | E-score |
| --- | --- |
| AGTGGGAT | 0.00379 |
| GGACAGGA | -0.213 |
| AGCAGGTC | -0.175 |
| AGAATATG | 0.298 |
| AATCACCT | 0.12 |
| AATCGTTG | 0.0757 |
| CAGCCAAG | -0.135 |
| AAGGCAGA | 0.014 |
| CGACTGCA | -0.108 |
| CAACTGGC | -0.12 |
| AATGTCTG | 0.139 |
| GAGCGCCC | -0.402 |
